Measured values of several laboratories.
Each line is one published result; not all experiments were run side by side. Several values in a cell are separate wells, animals, samples, runs or records.
UniProt Q02880, sequence (whole entry, looked up): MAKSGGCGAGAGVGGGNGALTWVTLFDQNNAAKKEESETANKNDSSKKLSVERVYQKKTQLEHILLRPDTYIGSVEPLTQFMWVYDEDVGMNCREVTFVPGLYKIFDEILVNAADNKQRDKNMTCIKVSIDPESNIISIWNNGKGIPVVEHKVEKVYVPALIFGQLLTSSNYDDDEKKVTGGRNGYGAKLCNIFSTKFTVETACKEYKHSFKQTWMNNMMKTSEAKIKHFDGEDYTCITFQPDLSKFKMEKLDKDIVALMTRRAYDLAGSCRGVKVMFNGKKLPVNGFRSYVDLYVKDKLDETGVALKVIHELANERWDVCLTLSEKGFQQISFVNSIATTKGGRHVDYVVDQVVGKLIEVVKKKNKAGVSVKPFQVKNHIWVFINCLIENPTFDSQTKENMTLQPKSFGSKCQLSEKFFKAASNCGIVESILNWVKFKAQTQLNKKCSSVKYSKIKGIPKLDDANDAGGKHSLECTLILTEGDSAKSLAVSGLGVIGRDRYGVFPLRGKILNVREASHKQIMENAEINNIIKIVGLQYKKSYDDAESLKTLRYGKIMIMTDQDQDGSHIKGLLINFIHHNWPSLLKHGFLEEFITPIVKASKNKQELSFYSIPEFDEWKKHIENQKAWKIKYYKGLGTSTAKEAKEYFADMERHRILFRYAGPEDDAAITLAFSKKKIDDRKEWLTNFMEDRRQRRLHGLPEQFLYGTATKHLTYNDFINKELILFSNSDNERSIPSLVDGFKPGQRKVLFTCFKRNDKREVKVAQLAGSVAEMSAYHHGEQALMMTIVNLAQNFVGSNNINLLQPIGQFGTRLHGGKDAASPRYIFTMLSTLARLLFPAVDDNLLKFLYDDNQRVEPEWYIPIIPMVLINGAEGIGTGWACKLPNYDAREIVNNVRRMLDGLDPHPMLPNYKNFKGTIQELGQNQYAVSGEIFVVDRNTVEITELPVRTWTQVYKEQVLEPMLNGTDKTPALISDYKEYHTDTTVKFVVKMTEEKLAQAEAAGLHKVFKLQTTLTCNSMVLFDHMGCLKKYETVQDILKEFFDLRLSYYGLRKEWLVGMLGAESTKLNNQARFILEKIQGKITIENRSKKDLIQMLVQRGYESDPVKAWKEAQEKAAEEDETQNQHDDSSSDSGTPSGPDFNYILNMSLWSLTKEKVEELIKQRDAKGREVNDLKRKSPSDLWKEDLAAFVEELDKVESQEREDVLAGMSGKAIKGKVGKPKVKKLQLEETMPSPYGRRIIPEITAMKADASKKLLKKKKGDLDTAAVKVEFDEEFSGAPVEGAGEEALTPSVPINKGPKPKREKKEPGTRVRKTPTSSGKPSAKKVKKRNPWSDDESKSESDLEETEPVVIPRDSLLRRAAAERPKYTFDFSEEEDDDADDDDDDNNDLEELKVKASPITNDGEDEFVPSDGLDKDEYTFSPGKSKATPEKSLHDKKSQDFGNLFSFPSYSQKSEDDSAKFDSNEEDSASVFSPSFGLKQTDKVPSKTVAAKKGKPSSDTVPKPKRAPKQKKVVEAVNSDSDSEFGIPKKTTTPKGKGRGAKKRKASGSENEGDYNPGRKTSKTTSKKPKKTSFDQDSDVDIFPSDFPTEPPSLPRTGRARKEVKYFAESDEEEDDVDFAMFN

For COC(=O)Nc1c(N)nc(-c2nn(Cc3ccccc3F)c3ncc(F)cc23)nc1N, “AUC(0-24) at steady state” read 6770 ng·h/mL (healthy male humans, plasma; oral, 10 mg once daily, phase I DDI study, with: sildenafil 100 mg).
CCn1c(=O)c(-c2cc(NC(=O)Nc3ccccc3)c(F)cc2Br)cc2cnc(NC)cc21 — result for “patients with grade 3+ TEAE”: 12.5% (item: injury and poisoning; moderate hepatic impairment; 50 mg single dose).
For O=C(Nc1nc2cccc(-c3ccc(CN4CCS(=O)(=O)CC4)cc3)n2n1)C1CC1, “patients with adverse event” read 0% (item: injury or procedural complication; rheumatoid arthritis patients; oral, 200 mg once daily, 4 weeks, any relatedness).
With CC1COc2ccccc2N1C(=O)C(Cl)Cl (stereo not drawn) the intrinsic clearance was 1400 µL/min/mg (cytosolic glutathione S-transferase; substrate depletion; rhesus monkey, male, liver cytosol; 5 µM, pH 7.4, with: glutathione).
For [H]/N=C(/N)N/C(=N/[H])NCCc1ccccc1, the CC50 was greater than 100000 nM (primary human hepatocytes; item: DNA; 4 h).
Under “serum level change”, N#CCC1CCN(c2nc(Nc3ccc(N4CCC(O)CC4)cc3)c3c(=O)[nH]ncc3n2)CC1 is recorded as -1.07 (Olink multiplex, item: CD163; human, serum; 20 mg, day 29, unit not given; reference: placebo).
For COc1cc([C@@H]2c3cc4c(cc3[C@@H](O[C@@H]3O[C@@H]5CO[C@@H](C)O[C@H]5[C@H](O)[C@H]3O)[C@H]3COC(=O)[C@H]23)OCO4)cc(OC)c1O, “mean decatenated DNA” read 39.9% and 40.3% (TOP2B (Homo sapiens, UniProt Q02880); decatenation; 250 µM).
With C[C@H]1O[C@@H](O[C@H]2[C@@H](O)C[C@H](O[C@H]3[C@@H](O)C[C@H](O[C@H]4CC[C@@]5(C)[C@H](CC[C@@H]6[C@@H]5CC[C@]5(C)[C@@H](C7=CC(=O)OC7)CC[C@]65O)C4)O[C@@H]3C)O[C@@H]2C)C[C@H](O)[C@@H]1O the CC50 was 20 nM (A549; cell growth or viability, resazurin; 72 h).
The MIC of CO/N=C(\C(=O)N[C@@H]1C(=O)N2C(C(=O)O)=C(COC(C)=O)CS[C@H]12)c1csc(N)n1 is reported as greater than 16 µg/mL (Salmonella enterica serovar Derby; broth microdilution; clinical isolate RKI-No 436/14).
Under “seated DBP maximum decrease”, COC(=O)Nc1c(N)nc(-c2nn(Cc3ccccc3F)c3ncc(F)cc23)nc1N is recorded as -1.01 mmHg (healthy white men; dose not given, day 15, 360 h, LS mean difference, with: sildenafil 100 mg; reference: placebo).
Fc1ccccc1Cc1nc(-c2nc(C(F)(F)F)n[nH]2)cn2ccnc12 — result for “subjects with reproductive-breast TEAEs”: 0% (healthy human subjects, both sexes; oral, 10 mg, fasted).
COc1ccc([C@@H](O)c2cc(-c3ncnc4cc(N5CCOCC5)ccc34)c(F)cc2Cl)nn1: “injury poisoning procedural TEAE” 17% (locally advanced rectal cancer patients; 250 mg, with: capecitabine and radiotherapy).
